Measured values from different studies.
Protocols differ between the studies behind these lines. Values joined by “and” are separate records of one study, mostly repeats; a detail may differ. ± marks the error that the study gave.
BMX: Cytoplasmic tyrosine-protein kinase BMX (BMX, Homo sapiens, UniProt P51813)
Chain of UniProt P51813 (whole entry, looked up): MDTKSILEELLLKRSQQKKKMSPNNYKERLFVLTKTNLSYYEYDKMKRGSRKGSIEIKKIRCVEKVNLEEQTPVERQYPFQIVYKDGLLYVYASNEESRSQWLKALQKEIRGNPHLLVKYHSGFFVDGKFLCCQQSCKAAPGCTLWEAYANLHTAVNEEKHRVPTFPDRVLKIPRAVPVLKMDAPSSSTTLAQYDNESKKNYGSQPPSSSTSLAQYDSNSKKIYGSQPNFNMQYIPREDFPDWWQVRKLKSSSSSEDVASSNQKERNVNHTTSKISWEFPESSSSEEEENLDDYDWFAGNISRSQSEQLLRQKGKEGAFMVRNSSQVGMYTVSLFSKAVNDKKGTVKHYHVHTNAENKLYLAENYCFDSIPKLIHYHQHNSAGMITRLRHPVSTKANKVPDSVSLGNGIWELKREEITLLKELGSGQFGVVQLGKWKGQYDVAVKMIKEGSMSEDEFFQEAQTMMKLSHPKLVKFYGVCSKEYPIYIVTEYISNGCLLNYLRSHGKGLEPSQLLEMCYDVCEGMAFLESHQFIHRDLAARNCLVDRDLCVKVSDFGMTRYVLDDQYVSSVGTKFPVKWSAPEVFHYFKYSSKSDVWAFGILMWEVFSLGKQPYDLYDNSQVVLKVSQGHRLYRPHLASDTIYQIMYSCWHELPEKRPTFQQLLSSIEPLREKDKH
TST: Thiosulfate sulfurtransferase (TST, Bos taurus, UniProt P00586)
Chain of UniProt P00586 (whole entry, looked up): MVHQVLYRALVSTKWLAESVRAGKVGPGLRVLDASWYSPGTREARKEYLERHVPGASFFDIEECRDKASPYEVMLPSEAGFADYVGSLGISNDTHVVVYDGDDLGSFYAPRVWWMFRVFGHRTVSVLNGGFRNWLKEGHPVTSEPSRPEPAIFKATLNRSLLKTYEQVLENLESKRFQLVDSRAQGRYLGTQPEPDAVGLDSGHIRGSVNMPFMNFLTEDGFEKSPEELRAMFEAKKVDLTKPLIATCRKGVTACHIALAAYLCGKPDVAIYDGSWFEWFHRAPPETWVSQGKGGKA
fabG: 3-oxoacyl-[acyl-carrier-protein] reductase FabG (fabG, Pseudomonas aeruginosa, UniProt O54438)
Chain of UniProt O54438 (whole entry, looked up): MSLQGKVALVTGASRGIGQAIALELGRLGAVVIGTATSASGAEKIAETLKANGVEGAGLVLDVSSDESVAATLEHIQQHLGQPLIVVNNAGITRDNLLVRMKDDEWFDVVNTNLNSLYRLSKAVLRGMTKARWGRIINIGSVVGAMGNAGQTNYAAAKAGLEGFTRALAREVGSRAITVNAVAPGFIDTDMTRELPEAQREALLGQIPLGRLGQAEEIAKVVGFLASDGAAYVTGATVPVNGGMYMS
ORF1 3C-like protease: Genome polyprotein, 3C-like protease (ORF1, Hu/NV/NV/1968/US, UniProt Q83883)
Chain of UniProt Q83883 (whole entry, looked up): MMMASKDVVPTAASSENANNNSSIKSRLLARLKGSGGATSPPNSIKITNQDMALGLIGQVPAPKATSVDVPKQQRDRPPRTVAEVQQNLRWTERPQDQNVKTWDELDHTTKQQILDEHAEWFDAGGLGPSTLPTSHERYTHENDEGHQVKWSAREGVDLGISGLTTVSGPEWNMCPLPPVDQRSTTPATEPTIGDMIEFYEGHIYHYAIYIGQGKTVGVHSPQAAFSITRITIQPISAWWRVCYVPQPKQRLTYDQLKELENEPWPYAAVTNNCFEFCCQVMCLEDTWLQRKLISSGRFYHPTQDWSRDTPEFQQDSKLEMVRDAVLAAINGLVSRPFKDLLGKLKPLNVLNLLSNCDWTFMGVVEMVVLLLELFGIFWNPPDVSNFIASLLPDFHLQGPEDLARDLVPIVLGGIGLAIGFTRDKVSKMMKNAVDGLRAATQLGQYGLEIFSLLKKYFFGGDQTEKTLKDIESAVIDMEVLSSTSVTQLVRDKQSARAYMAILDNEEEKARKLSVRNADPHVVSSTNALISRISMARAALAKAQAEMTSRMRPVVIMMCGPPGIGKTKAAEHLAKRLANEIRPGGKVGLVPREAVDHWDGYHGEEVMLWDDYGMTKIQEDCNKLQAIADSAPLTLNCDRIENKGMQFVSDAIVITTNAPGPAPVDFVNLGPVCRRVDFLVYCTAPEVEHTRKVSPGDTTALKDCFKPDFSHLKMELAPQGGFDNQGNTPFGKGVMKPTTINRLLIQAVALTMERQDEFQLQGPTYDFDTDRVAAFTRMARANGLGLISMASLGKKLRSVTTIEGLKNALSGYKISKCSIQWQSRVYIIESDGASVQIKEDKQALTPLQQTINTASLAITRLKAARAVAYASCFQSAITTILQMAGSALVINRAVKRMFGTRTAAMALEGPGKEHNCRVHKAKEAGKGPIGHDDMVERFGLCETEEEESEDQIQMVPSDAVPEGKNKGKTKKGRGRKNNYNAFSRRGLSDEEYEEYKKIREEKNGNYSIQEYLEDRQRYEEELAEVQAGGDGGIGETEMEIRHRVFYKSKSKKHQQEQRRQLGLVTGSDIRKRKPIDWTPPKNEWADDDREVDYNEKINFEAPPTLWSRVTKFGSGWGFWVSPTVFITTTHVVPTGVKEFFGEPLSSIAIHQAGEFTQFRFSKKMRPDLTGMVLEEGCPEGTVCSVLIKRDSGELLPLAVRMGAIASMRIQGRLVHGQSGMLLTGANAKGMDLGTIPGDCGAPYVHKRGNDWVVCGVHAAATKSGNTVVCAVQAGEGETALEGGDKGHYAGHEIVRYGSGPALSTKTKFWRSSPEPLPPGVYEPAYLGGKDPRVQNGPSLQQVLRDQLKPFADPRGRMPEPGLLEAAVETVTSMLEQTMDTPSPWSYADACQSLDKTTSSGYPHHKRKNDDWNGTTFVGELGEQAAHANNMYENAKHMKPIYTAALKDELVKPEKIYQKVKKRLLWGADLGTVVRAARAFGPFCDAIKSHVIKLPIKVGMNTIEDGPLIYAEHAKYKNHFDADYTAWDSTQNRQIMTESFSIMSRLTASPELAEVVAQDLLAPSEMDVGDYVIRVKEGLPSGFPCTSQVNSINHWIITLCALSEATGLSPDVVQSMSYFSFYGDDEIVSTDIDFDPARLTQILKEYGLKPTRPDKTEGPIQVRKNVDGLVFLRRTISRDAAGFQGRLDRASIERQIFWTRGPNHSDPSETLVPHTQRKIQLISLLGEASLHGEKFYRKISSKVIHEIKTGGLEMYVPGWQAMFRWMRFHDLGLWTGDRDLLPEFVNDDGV
MAOA: Amine oxidase [flavin-containing] A (MAOA, Homo sapiens, UniProt P21397)
Chain of UniProt P21397 (whole entry, looked up): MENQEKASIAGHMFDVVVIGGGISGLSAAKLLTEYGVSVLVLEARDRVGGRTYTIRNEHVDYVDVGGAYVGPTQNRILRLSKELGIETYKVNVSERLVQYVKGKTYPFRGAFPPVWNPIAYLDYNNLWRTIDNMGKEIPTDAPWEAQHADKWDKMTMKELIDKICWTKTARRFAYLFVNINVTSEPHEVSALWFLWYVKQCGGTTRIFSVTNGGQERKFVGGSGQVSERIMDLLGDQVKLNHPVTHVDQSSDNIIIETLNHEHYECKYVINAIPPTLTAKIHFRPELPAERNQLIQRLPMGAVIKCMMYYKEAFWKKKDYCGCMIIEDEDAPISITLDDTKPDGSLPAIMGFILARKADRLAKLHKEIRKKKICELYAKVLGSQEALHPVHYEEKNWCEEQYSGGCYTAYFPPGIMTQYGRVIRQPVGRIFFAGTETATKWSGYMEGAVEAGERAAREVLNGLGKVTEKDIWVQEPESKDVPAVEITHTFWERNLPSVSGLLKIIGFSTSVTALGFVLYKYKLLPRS
MLLT1 with AF4: Protein ENL, with AF4 (MLLT1, Homo sapiens, UniProt Q03111)
Chain of UniProt P55073 (whole entry, looked up): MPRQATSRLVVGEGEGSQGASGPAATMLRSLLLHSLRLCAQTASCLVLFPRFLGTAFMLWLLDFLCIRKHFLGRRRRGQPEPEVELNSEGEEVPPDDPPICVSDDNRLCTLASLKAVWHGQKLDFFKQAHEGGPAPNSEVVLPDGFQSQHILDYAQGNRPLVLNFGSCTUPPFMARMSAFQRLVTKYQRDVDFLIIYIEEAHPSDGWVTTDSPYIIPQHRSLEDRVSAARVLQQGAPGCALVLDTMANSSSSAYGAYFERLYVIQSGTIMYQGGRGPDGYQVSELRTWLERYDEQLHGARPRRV
Chain of UniProt Q03111 (whole entry, looked up): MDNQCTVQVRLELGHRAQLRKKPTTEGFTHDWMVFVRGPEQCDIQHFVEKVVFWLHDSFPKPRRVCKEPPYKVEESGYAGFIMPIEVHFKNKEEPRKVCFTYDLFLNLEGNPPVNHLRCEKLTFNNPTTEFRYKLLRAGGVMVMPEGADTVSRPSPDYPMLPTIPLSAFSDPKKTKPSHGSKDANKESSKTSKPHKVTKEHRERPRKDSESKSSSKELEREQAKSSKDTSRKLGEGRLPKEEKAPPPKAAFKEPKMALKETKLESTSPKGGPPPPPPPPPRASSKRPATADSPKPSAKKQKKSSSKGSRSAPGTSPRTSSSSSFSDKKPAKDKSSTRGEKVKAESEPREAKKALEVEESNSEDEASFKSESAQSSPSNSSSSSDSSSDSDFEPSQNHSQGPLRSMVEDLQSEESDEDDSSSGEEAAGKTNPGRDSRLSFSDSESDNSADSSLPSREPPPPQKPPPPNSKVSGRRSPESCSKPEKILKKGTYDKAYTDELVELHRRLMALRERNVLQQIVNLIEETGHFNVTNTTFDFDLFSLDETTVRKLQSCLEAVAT
Chain of UniProt Q8NBQ5 (whole entry, looked up): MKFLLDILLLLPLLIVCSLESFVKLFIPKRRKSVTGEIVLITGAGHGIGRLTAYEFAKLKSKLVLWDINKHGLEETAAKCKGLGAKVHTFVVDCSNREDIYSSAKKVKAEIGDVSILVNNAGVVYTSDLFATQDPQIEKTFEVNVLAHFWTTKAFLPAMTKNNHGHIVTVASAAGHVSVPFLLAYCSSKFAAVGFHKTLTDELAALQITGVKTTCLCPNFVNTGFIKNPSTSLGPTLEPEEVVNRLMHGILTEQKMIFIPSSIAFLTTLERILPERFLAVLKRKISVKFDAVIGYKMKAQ
Chain of UniProt Q96D96 (whole entry, looked up): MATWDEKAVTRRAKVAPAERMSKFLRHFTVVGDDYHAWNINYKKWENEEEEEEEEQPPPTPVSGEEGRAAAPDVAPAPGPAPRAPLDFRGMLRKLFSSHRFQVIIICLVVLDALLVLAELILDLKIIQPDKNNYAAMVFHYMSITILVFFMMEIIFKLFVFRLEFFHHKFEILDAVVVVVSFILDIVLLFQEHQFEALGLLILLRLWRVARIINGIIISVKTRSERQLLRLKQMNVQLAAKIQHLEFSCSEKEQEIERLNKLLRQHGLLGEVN

CC(C)=CCCC(C)CCO (stereo not drawn)  IC50 (uncharacterized protein (Bradysia odoriphaga, UniProt A0A2S0X9G4); binding, competitive fluorescence displacement; pH 7.4): > 50 µM
Cc1nc(Nc2ncc(C(=O)Nc3c(C)cccc3Cl)s2)cc(N2CC[C@H](O)C2)n1  IC50 (BMX; enzyme activity, inhibitor): 0.00025 µM
Nc1ncnc2c1ncn2[C@@H]1O[C@H](CSCC[C@H](N)C(=O)O)[C@@H](O)[C@H]1O  IC50 (Genome polyprotein, NS5 methyltransferase domain (pol, Dengue virus type 3, UniProt Q6YMS4)): 0.8 µM
O=C(Nc1ccc(Sc2nc3ccccc3s2)cc1)c1cccc(Br)c1O  IC50 (TST; enzyme activity, inhibitor; native rhodanese counter-screen): > 100 µM
CCCCCCCCCCCCCC(=O)OC  IC50 (uncharacterized protein (Drosophila suzukii, UniProt A0AB39ZCT4); binding, bis-ANS competition fluorescence; pH 7.4, together with: bis-ANS): > 50 µM
O=C(CN1C(=O)Cc2c([nH]c3ccc(Br)cc23)-c2ccc(Cl)cc21)Nc1ccccc1  IC50 (Trypanothione synthetase (Trypanosoma brucei brucei, UniProt Q8IEX1); enzyme activity; Trypanosoma brucei): ~30 µM
COc1cc(O)c(CC=C(C)C)c(O)c1C(=O)/C=C/c1ccc(O)cc1  IC50 (Thyroxine 5-deiodinase (DIO3, Homo sapiens, UniProt P55073); biochemical): 0.43 µM and 0.19 µM and 0.21 µM
O=S(=O)(Nc1ccc(-c2nc3cc(NS(=O)(=O)c4ccc(F)cc4)ccc3o2)cc1)c1ccc(F)cc1  IC50 (TST; enzyme activity, inhibitor; native rhodanese counter-screen): > 100 µM
CCCCCCCCCCCC=O  IC50 (uncharacterized protein (Bradysia odoriphaga, UniProt A0A2S0X9G4); binding, competitive fluorescence displacement; pH 7.4): > 50 µM
O=S(=O)(Nc1ccc(-c2nc3cc(NS(=O)(=O)c4ccc(Cl)s4)ccc3o2)cc1)c1ccc(Cl)s1  IC50 (TST; enzyme activity, inhibitor; native rhodanese counter-screen): > 100 µM
c1ccc2[nH]ccc2c1  IC50 (uncharacterized protein (Bradysia odoriphaga, UniProt A0A2S0X9G4); binding, competitive fluorescence displacement; pH 7.4): > 50 µM
COc1cc(/C=C/C(=O)CC(=O)/C=C/c2ccc(O)c(OC)c2)ccc1O  IC50 (ATP2A1 (Oryctolagus cuniculus, UniProt P04191); ATPase activity, inhibitor): 5.1 µM
Cn1ncc2c(NCCO)nc(Nc3ccc(F)c(F)c3)nc21  IC50 (fabG): 0.11 µM
CC(C)C[C@H](NC(=O)[C@H](Cc1cccc2ccccc12)NC(=O)OCc1ccccc1)C(=O)NC(C[C@@H]1CCNC1=O)C1OC1S(C)(=O)=O (stereo partly drawn)  IC50 (ORF1 3C-like protease; protease activity, inhibitor, FRET; GI.1; 37 °C): > 10 µM
COc1cc(NC(=O)c2cccs2)c2ncccc2c1  IC50 (fabG; enzyme activity, inhibitor, NADPH fluorescence; reverse reaction, geometric mean, together with: 3-OH-decanoyl-NAC, NADP): 2.3 µM
CCCCCCCCCCCCCCCC(=O)OC  IC50 (uncharacterized protein (Drosophila suzukii, UniProt A0AB39ZCT4); binding, bis-ANS competition fluorescence; pH 7.4, together with: bis-ANS): > 50 µM
CCOC(=O)[C@H]1O[C@@H]1C(=O)N[C@@H](CC(C)C)C(=O)NCCC(C)C  IC50 (Calpain-2 catalytic subunit (Homo sapiens, UniProt P17655)): 0.53 ± 0.32 µM
CCCCCCCC/C=C\CCCCCCCCCCCCC  IC50 (uncharacterized protein (Drosophila suzukii, UniProt A0AB39ZGK5); binding, bis-ANS competition fluorescence; pH 7.4, together with: bis-ANS): > 50 µM
O=C(Nc1ccc(F)c(Br)c1)c1ccc2c(c1)C(=O)NC2=O  IC50 (MAOA): > 40 µM
C=CC(C)(CCC=C(C)C)OC(C)=O (stereo not drawn)  IC50 (uncharacterized protein (Drosophila suzukii, UniProt A0AB39ZCT4); binding, bis-ANS competition fluorescence; pH 7.4, together with: bis-ANS): > 50 µM
CC(=O)c1ccccc1  IC50 (uncharacterized protein (Bradysia odoriphaga, UniProt A0A2S0X9G4); binding, competitive fluorescence displacement; pH 7.4): > 50 µM
O=C(Nc1cc(Cl)cc(Cl)c1)c1ccc2c(c1)C(=O)NC2=O  IC50 (MAOA): > 40 µM
NC(=O)c1sc(-c2ccccc2)cc1NC(=O)c1cccs1  IC50 (fabG; enzyme activity, inhibitor, NADPH fluorescence; reverse reaction, geometric mean, together with: 3-OH-decanoyl-NAC, NADP): 6.6 µM
O=S(=O)(Nc1ccc(-c2nc3cc(NS(=O)(=O)c4cccc(C(F)(F)F)c4)ccc3o2)cc1)c1cccc(C(F)(F)F)c1  IC50 (TST; enzyme activity, inhibitor; native rhodanese counter-screen): > 100 µM
O=C(O)c1ccc(NS(=O)(=O)c2ccc(Cl)c(Cl)c2)cc1  IC50 (Estradiol 17-beta-dehydrogenase 11 (Homo sapiens, UniProt Q8NBQ5); enzyme activity, inhibitor; together with: 20-HETE ethanolamide substrate): > 100 µM
O=C(Nc1ccc(Br)cc1)c1ccc2c(c1)C(=O)NC2=O  IC50 (MAOA): > 40 µM
OC[C@H]1O[C@H](O[C@H]2O[C@H](CO)[C@@H](O)[C@H](O)[C@H]2O)[C@H](O)[C@@H](O)[C@@H]1O  IC50 (uncharacterized protein (Drosophila suzukii, UniProt A0AB39ZGK5); binding, bis-ANS competition fluorescence; pH 7.4, together with: bis-ANS): > 50 µM
CN1CCN(c2ccc(Nc3ncc4cc(C#N)c(=O)n(C5CCCC5)c4n3)cc2)CC1  IC50 (CAMKK1 (Homo sapiens, UniProt Q8N5S9)): > 10 µM
CN1CCC(CNc2ccc3ncc(-c4cccc(OC(F)(F)F)c4)n3n2)CC1  IC50 (KDR (Homo sapiens, UniProt P35968); binding, KINOMEscan binding; top concentration 10 µM): 4.67 µM
Cc1cnc(-c2ccc(-c3ccc(NC(=O)Nc4c(F)cc(F)cc4F)cc3F)c3c2C(=O)NC3)[nH]1  IC50 (FLT3 (Homo sapiens, UniProt P36888); enzyme activity, inhibitor, mobility shift; together with: ATP 1 mM): 0.0081 µM
CC[C@@H]1[C@H](F)C(=O)N[C@@H]1COc1nccc2cc(C(N)=O)c(OC)cc12  IC50 (MAST3 (Homo sapiens, UniProt O60307); ATP-site probe binding, ActivX profiling; THP-1 cell lysate; Lys2 site): > 5 µM
c1cc(N2CCCCC2)ccc1Nc1cc2ncc(OCC3CCNCC3)nc2cc1-c1ccc(N2CCCCC2)cc1  IC50 (MLLT1 with AF4; AlphaScreen): 0.56 ± 0.18 µM
CC(C)(C)c1nc(-c2ccc(NC(=O)Nc3cccc(C(F)(F)F)c3)c3ccccc23)c2c(N)nccn12  IC50 (ERN1 (Homo sapiens, UniProt O75460); RNase activity, inhibitor, FRET suppression; 90 min preincubation, together with: XBP1 RNA substrate): 19.7 µM
O=C(Nc1ccccc1Cl)c1ccc2c(c1)C(=O)NC2=O  IC50 (MAOA): > 40 µM
CC1=C(C=O)C(C)(C)CCC1  IC50 (uncharacterized protein (Drosophila suzukii, UniProt A0AB39ZGK5); binding, bis-ANS competition fluorescence; pH 7.4, together with: bis-ANS): > 50 µM
O=C1Nc2ccc(Cl)cc2[C@@](C#CC2CC2)(C(F)(F)F)O1  IC50 (Gag-Pol polyprotein, reverse transcriptase (gag-pol, Xenotropic MuLV-related virus, UniProt A1Z651); inhibitor, primer extension; together with: 1 µM dNTPs): > 10 µM
Cc1[nH]c(N)nc1/C=C/C(=O)c1cc(F)cc(F)c1  IC50 (Voltage-gated hydrogen channel 1, monomeric (HVCN1, Homo sapiens, UniProt Q96D96); proton current, inhibitor, inside-out patch clamp; pH 6.0): 20.6 ± 0.7 µM
C[C@]12CC[C@@H]3c4ccc(O)cc4C[C@@H](CCCCCCCCC[S+]([O-])CCCC(F)(F)C(F)(F)F)[C@H]3[C@@H]1CC[C@@H]2O (stereo partly drawn)  IC50 (NR3C2 (Homo sapiens, UniProt P08235); MR receptor activity, antagonist, cell-based): 1.19 µM
C/C1=C\CC/C(C)=C/CC(C)(C)/C=C/C1  IC50 (uncharacterized protein (Bradysia odoriphaga, UniProt A0A2S0X9G4); binding, competitive fluorescence displacement; pH 7.4): > 50 µM
O=C1C[C@@H](c2ccc(O)cc2)Oc2cc(O)cc(O)c21  IC50 (uncharacterized protein (Drosophila suzukii, UniProt A0AB39ZCT4); binding, bis-ANS competition fluorescence; pH 7.4, together with: bis-ANS): 42.1 µM
O=S(=O)(Nc1ccc(-c2nc3cc(NS(=O)(=O)c4ccc(C(F)(F)F)cc4)ccc3o2)cc1)c1ccc(C(F)(F)F)cc1  IC50 (TST; enzyme activity, inhibitor; native rhodanese counter-screen): > 100 µM
OCCc1ccccc1  IC50 (uncharacterized protein (Drosophila suzukii, UniProt A0AB39ZCT4); binding, bis-ANS competition fluorescence; pH 7.4, together with: bis-ANS): > 50 µM
COc1cc(NC(=O)c2ccc3c(c2)C(=O)NC3=O)ccc1Cl  IC50 (MAOA): > 40 µM
O=c1nc(SCc2cc(F)cc(C(F)(F)F)c2)nc(SCc2ccc3nc(Cl)ccc3c2)[nH]1  IC50 (TOP2A (Homo sapiens, UniProt P11388); ATPase activity, inhibitor, competitive ATPase; together with: 1 mM ATP): 29.6 µM
Cc1cc(C)n2nc(C)c(-c3ccc(F)cc3)c2n1  IC50 (fabG): 0.31 µM
C=CC(=O)Nc1cccc(Oc2nc(Nc3ccc(N4CCN(C)CC4)cc3)nc3ccoc23)c1  IC50 (BMX): < 0.000254 µM
COc1ccc(NC(=O)c2ccc3c(c2)C(=O)NC3=O)cc1  IC50 (MAOA): > 40 µM
CC(C)C[C@H](NC(=O)[C@H](Cc1cccc2ccccc12)NC(=O)OCc1ccccc1)C(=O)NC(/C=C/C=O)C[C@@H]1CCNC1=O (stereo partly drawn)  IC50 (ORF1 3C-like protease; protease activity, inhibitor, FRET; GI.1; 37 °C): > 10 µM
CCn1c(NC(=O)Nc2ccccc2C)nc2ccccc21  IC50 (fabG; enzyme activity, inhibitor, NADPH fluorescence; reverse reaction, geometric mean, together with: 3-OH-decanoyl-NAC, NADP): 6.7 µM
COc1ccc(S(=O)(=O)Nc2ccc3oc(-c4ccc(NC(=O)c5ccc(Cl)s5)cc4)nc3c2)cc1  IC50 (TST; enzyme activity, inhibitor; native rhodanese counter-screen): > 100 µM
c1ccc(COc2ccc(Nc3ccc4ncc(OCC5CCNCC5)nc4c3)cc2)cc1  IC50 (MLLT1 with AF4; AlphaScreen): 1.5 ± 0.11 µM
CCCCCCCC=O  IC50 (uncharacterized protein (Bradysia odoriphaga, UniProt A0A2S0X9G4); binding, competitive fluorescence displacement; pH 7.4): > 50 µM
Cc1ccc(NC(=O)c2ccc(C)c(C(F)(F)F)c2)cc1C#Cc1nn(C2CCC(O)CC2)c2ncnc(N)c12 (stereo not drawn)  IC50 (ABL2 (Homo sapiens, UniProt P42684); inhibitor, radiometric kinase; together with: ATP 10 µM): 0.004 µM
c1cc(N2CCCC2)ccc1-c1cc2ncc(OCC3CCNCC3)nc2cc1-c1ccc(N2CCCC2)cc1  IC50 (Protein ENL, with DOT1L (MLLT1, Homo sapiens, UniProt Q03111); AlphaScreen): 0.95 ± 0.13 µM
